# Results collected from several papers.
# Each numbered part is a random draw from the data of one study; scales do not carry over between parts.

# Set 1
# Target: Interferon regulatory factor 3, full length, phosphomimetic (IRF3, Homo sapiens, UniProt Q14653, residues 1-427, S386D/S396D/S398D/S402D/T404D/S405D)
# Method: protein-binding microarray
# Form: double-stranded DNA, one strand shown
# Matrix: in vitro
# Tested at: 2540 nM top
# Notes: 60-bp whole probe
# Together with: salmon DNA 0.4 mg/ml
# Relative to: random background probes
# Direction: higher = stronger binding
# Target sequence (chain): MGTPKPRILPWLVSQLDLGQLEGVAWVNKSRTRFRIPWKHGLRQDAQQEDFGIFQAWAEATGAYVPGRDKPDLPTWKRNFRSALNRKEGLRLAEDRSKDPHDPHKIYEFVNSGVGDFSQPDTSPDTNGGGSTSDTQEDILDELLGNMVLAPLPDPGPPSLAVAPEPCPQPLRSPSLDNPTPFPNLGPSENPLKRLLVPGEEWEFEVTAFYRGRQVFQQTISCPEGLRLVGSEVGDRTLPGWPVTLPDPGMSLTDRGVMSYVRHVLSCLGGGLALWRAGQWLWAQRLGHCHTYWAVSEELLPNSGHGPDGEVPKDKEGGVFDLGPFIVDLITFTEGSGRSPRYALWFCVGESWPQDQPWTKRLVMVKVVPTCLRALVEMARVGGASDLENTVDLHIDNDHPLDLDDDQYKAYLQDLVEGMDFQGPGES
Oligonucleotide,fitted relative affinity [z-score]
GCCTAGCACTCATCTCTCCATGTGTTACTGTGCTAGGTCTTGATTCGCTTGACGCTGCTG,1.15
GCCTAGCACGACGGTATCGGGACTTGGGACGTGCTAGTCTTGATTCGCTTGACGCTGCTG,1.43
GCCTAGCACTCAGTTTTCATTATTGTACTGTGCTAGGTCTTGATTCGCTTGACGCTGCTG,3.72
GCCTAGCACTCATCTCAGAATCTCTCACTGTGCTAGGTCTTGATTCGCTTGACGCTGCTG,1

# Set 2
# Target: TAR DNA-binding protein 43, full length, His tag (TARDBP, Homo sapiens, UniProt Q13148, residues 1-414)
# Method: RNA Bind-n-Seq
# Form: RNA
# Matrix: in vitro
# Tested at: 20 nM
# Notes: 6-mer, flanks averaged, single round
# Together with: 150 mM LiCl
# Relative to: input library
# Direction: higher = stronger binding
Oligonucleotide,6-mer enrichment (R)
GCGUUU,1.13
UGUAGU,1.23
ACUAAC,0.828
GACCAC,0.862
AGGCUU,0.885
GUUAAG,1.03
CGGGGA,1.08
ACCAAU,0.898
UCGAUC,0.825

# Set 3
# Target: Histone acetyltransferase KAT6A, winged helix 2, GST fusion (KAT6A, Homo sapiens, UniProt Q92794, residues 85-181)
# Method: protein binding microarray
# Form: double-stranded DNA, one strand shown
# Matrix: in vitro
# Tested at: not given
# Notes: 8-mer, flanks averaged, mean of 2 arrays, mostly near background
# Relative to: not given
# Direction: higher = stronger binding
# Residues (chain): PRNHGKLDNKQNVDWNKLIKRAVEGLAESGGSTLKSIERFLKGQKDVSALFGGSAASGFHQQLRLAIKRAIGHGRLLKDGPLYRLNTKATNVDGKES
Oligonucleotide,E-score
GGAAAACC,-0.0309
ACACCAGA,0.0482
GCAATAGC,-0.0284
ATATGATC,0.11
GTAAAGCA,-0.000865
TGAGGCCA,0.102
GAGTAGCA,0.215
GTCTAGCA,0.0105
CAGCATGC,0.056

# Further values, each from its own experiment
Substance,target,assay,system,conditions,scale,measurement,result
"PhoQ, residues 284 288 289 292 302 303 AANNSF","PhoP, residues 12 14 15 18 19 GHCSL (Escherichia coli, UniProt P23836)","Sort-seq, refers to: YFP reporter",E. coli,"PhoQ-PhoP variant library, together with: 10 µM Mg2+","relative to: high Mg2+ state, higher = stronger signaling",fold induction,9.95
